Experimental data gathered from unrelated publications.
Every numbered part comes from another study and shows a few of its results, in no order. Several values in a cell are separate wells, animals, samples, runs or records.
Chain of UniProt Q14289 (whole entry, looked up): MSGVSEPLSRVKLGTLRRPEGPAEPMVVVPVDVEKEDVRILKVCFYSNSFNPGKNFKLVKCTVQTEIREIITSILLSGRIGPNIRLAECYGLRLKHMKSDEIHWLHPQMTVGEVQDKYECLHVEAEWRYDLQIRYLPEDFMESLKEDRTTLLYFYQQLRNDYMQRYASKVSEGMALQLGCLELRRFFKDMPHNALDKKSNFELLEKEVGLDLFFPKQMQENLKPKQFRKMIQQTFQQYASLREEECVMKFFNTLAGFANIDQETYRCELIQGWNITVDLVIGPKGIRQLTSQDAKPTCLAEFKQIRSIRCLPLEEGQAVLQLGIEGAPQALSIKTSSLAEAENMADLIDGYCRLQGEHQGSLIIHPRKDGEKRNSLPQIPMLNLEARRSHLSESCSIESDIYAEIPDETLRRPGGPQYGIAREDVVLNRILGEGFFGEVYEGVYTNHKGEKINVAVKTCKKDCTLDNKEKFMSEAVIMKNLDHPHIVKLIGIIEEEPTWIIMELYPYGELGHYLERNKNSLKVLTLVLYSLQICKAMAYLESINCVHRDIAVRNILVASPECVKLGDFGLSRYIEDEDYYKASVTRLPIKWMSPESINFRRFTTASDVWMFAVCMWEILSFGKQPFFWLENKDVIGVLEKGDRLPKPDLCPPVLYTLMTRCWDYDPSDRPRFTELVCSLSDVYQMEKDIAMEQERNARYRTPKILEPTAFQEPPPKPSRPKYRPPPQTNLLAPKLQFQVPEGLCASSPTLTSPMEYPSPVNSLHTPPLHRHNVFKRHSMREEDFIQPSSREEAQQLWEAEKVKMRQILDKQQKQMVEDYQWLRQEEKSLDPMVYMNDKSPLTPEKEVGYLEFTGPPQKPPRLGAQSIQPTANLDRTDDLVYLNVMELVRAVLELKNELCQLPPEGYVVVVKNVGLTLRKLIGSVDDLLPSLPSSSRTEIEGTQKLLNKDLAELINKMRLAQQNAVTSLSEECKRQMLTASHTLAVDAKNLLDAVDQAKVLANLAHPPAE
Chain of UniProt P51812 (whole entry, looked up): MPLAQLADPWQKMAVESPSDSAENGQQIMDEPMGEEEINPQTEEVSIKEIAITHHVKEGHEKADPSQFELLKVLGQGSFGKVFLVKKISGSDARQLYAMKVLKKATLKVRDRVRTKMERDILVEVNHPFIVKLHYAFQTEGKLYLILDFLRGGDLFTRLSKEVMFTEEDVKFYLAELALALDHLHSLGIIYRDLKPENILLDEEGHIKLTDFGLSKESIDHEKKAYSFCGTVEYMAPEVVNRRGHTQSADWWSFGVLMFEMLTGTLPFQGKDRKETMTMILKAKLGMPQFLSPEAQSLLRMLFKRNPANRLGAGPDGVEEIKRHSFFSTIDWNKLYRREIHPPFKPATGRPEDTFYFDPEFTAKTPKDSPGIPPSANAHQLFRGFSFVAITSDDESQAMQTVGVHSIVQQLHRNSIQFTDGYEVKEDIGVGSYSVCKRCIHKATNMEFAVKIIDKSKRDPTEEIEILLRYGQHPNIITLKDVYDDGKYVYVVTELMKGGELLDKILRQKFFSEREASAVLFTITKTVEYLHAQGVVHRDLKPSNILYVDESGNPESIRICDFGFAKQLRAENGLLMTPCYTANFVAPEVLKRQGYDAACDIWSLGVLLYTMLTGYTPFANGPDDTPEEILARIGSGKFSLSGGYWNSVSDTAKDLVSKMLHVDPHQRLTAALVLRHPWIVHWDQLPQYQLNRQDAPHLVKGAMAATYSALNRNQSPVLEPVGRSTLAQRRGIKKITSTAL
Chain of UniProt P07332 (whole entry, looked up): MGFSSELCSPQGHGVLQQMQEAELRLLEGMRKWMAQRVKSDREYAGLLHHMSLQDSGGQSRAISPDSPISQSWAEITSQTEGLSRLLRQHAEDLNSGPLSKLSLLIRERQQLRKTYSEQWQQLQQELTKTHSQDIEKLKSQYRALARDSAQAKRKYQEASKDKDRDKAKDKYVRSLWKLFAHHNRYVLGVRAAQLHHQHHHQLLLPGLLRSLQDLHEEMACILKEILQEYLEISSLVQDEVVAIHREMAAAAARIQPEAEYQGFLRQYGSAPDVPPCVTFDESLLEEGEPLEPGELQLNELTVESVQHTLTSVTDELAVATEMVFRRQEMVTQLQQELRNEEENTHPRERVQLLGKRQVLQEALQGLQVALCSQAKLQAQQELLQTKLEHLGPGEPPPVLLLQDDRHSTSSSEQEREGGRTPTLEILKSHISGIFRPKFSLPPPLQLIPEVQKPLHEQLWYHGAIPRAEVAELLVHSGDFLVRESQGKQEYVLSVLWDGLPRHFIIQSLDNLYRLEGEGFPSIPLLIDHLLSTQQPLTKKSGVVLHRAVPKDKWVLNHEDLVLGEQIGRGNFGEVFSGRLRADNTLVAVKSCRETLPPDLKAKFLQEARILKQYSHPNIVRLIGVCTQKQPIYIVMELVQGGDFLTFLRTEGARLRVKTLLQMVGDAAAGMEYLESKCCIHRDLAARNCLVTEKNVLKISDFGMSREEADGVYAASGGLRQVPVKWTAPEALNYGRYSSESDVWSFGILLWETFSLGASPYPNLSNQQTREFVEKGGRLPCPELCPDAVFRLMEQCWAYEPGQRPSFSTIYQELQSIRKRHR
Chain of UniProt Q06418 (whole entry, looked up): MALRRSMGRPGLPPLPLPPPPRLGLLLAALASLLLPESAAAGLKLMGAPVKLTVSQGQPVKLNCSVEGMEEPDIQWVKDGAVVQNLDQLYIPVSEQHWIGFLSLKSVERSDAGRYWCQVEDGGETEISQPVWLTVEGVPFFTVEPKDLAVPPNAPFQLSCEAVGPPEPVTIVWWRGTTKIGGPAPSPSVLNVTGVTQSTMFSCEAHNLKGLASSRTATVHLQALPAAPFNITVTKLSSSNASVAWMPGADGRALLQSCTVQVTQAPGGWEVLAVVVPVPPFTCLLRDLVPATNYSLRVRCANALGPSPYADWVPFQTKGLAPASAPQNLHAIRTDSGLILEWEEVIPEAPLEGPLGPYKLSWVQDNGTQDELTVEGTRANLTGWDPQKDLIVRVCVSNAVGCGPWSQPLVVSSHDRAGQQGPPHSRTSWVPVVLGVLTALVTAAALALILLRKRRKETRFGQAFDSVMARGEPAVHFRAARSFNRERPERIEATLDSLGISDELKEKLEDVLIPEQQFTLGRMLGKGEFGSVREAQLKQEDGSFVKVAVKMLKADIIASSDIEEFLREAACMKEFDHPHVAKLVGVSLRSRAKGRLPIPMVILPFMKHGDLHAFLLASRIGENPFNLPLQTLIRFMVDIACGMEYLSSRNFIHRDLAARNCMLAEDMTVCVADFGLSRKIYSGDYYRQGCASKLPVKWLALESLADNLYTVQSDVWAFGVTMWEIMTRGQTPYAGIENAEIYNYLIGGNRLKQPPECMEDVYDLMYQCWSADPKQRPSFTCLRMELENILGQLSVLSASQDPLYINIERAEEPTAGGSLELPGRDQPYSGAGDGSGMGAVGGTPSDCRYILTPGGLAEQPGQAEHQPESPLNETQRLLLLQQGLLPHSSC
Chain of UniProt Q8IWQ3 (whole entry, looked up): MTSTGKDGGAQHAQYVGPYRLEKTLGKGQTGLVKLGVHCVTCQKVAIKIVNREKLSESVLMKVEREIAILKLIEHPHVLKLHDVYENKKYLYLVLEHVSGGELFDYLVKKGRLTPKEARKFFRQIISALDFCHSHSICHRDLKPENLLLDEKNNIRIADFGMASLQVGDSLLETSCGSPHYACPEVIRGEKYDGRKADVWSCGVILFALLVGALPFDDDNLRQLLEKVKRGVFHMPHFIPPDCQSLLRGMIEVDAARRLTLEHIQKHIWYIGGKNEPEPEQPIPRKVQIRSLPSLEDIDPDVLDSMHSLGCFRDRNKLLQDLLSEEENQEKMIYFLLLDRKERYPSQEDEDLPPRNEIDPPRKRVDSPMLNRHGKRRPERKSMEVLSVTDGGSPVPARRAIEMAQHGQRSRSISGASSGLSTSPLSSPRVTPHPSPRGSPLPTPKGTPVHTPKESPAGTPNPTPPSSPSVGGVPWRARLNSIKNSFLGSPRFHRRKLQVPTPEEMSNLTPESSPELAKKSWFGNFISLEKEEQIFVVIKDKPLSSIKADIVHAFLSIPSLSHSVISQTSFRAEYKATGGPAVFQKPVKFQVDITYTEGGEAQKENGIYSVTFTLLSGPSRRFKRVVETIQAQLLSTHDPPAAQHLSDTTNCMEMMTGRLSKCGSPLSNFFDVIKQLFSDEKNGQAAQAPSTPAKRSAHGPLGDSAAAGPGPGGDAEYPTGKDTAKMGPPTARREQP

Series 1
Target: Hepatocyte nuclear factor 3-alpha (Foxa1, Mus musculus, UniProt P35582, residues 1-468, full length assumed)
Chain of UniProt P35582 (whole entry, looked up): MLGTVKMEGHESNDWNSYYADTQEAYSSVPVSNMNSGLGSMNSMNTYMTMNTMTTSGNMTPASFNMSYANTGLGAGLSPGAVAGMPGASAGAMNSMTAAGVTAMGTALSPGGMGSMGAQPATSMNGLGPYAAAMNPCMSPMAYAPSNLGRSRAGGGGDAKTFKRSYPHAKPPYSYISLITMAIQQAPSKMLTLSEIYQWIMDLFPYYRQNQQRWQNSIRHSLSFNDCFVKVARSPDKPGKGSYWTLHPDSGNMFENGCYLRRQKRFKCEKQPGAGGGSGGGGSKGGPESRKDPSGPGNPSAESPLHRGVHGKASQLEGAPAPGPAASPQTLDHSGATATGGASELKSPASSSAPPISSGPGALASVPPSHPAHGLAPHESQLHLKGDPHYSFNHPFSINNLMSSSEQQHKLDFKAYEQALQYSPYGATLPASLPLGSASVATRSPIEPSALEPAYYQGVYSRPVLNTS
Technique: EMSA with sequencing
Molecule type: double-stranded DNA, one strand shown
Medium: in vitro
Tested at: 10 and 20 nM
Notes: whole designed probe, mean of two concentrations, ends assumed
Baseline: negative control set to 0
Reading: higher = stronger binding
Endpoint: normalised bound fraction
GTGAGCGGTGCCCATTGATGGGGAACATCTTCCCCCTCTTCCTTGCCCCACCAGCTCACCTACGGGGGTTATTTGCACAAAGGAAAATAAATAAAGCCGGCATTCGTTAACCCTCTTCTGGCGCAAACTGCTGTTTGCTCTGCATGAATCATGGTCCTTACGCGAGGCGTGGCTCCGGGAGAGCAAAGCACCGTGTCAGGCGCATGATCCGGGGTGGCCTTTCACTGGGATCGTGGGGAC: 0.387 ratio
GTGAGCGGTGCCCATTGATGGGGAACGTCCCTGGGCCTGGCTTGGGACAGACAGAGGCGTCATCTTGTTCTCATATGCGGGAAGGCTATGAAAAGAAAACCGCGTGTTGGTCCAAAATGTAAACAAGAATTACACTAGGATCTTTTGTTCTCACTCTGACATGGTCAGAATTAATTTGGAGGTCCAAAAAGAGGGCGTTTTGTTTTTTAATCTGAATTATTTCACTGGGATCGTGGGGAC: 0.335 ratio
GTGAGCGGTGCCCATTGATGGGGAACACACTTCTTCCATTTCCTCAACTCCTAAACATTCATTTATTCATTCTTCATCACACAAAAATCTGAATCTGGCTTCTGCCCCCTACCCTCCTAAATTACTTTCTCAAATAGTATACATTTAGTCATTAAACAAACATACATACATGCATATTTTCAAGATTATCAAGCAATTCCTGTTTCAACTTTTCTTAAATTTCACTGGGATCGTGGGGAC: 0.432 ratio
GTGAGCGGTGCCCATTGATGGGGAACTAAAGAATTTCTCAGTATAATTACCTCCAGCCAGGTTGCTTTTTTTAGCTCAAAAGAAAGATAAAAGGCGGAGTCCTGTAAATAAAGGGAATGTAATCTTGGAGACTGAACCAAAGGCAAGTTACGGGGAGATAAGAATACCTGAAGAGAATTCGATTCAGCTTGATGGTTTTACAGAAGCATATGAAAGTGGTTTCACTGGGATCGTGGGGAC: 0.00958 ratio
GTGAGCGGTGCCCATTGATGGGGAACATCTTCCCCCTCTTCCTTGCCCCACCAGCTCACCTTCCCGGGTTATTTGCACAAAGGAAAATAAATAAAGCCGGCATTCGTTAACCCTCTTCACGCGCATACTGCTGTTTGCTCTGCATCTAACATGGTCCTTACGCGAGGCGTGGCTCCGGGAGAGCAAAGCACCGTGTCAGGCGCATGATCCGGGCTCGCCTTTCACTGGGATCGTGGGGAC: 0.382 ratio
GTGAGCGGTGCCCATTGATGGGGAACCAGCTTGGGGCAGACAGTTGTTAGGAGATAAAACTCTTAGCTGCTGGAGTTCTGGGCTTTATTTCTTCTTCAACAAAGCTCTGACTCAGTTAGGTAAACACAGGCACTAGCAAGCCTGATCATTTCCAGAGAGTTCCCCAGGGACAGACACAAAGGAATACAGAAGATAATAGATTAATTAAACATGCTGCCCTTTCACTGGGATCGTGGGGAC: 0.336 ratio
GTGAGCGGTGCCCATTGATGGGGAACGCACCACTCAGCCCCTCCTAGTCCGCTGGAGAAAGTGGCTGAGGGGGTGGTGGGGGATAATTGCATTTCCAAAGTCCGGGCAATCAGCCAATGTAAACAGGCACCTGCATCACTGTGTGGGCTCTCTAGGCAACAGGTAAAATACATCAAATACACACAATTTCCTGACATTCCAATGCATTTCTGCGTGAGCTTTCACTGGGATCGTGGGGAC: 0.249 ratio
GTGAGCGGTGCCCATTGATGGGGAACCCTAGTTAAGAAGAGGAAGATGGAAGTACTAATACAAAGTGTAGCTAAAAGACATTGCTGGGCTTTAACTTCTGCCTCCCATTCTCTGTTAAGTAATCTAGAAAATGGAGGCAAACAAGCTCCCTAGGTAGTGCTAAGCCACACGTTCTGACTGTGAGAAAGAATCTCTTGTGGAGAAAATGAAATAAACATATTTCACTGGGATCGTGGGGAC: 0.0624 ratio

Series 2
SMILES: CN(C)CCCn1cc(C2=C(c3c[nH]c4ccccc34)C(=O)NC2=O)c2ccccc21
Effect on: enzyme activity
Mode: inhibitor
Tested at: 0.5 µM
Baseline: control
Endpoint: remaining activity
Serine/threonine-protein kinase MARK1 (MARK1, Homo sapiens, UniProt Q9P0L2): 84.1%
Ephrin type-B receptor 3 (EPHB3, Homo sapiens, UniProt P54753): 95.2%
Protein kinase C theta type (PRKCQ, Homo sapiens, UniProt Q04759): 17.3%
Vascular endothelial growth factor receptor 1 (FLT1, Homo sapiens, UniProt P17948): 78.1%
Cyclin-dependent kinase 5, with p35 (CDK5, Homo sapiens, UniProt Q00535): 90%
Serine/threonine-protein kinase PAK 5 (PAK5, Homo sapiens, UniProt Q9P286): 92.8%
Ephrin type-A receptor 2 (EPHA2, Homo sapiens, UniProt P29317): 81.8%
Protein kinase C zeta type (PRKCZ, Homo sapiens, UniProt Q05513): 57.2%
Serine/threonine-protein kinase PAK 4 (PAK4, Homo sapiens, UniProt O96013): 93.6%
Muscle, skeletal receptor tyrosine-protein kinase (MUSK, Homo sapiens, UniProt O15146): 71.9%
Dual specificity protein kinase CLK2 (CLK2, Homo sapiens, UniProt P49760): 28%
Cyclin-dependent kinase 2, with cyclin E (CDK2, Homo sapiens, UniProt P24941): 80.4%
Serine/threonine-protein kinase BRSK2 (BRSK2, Homo sapiens, UniProt Q8IWQ3): 55.6%
Maternal embryonic leucine zipper kinase (MELK, Homo sapiens, UniProt Q14680): 42%
Ribosomal protein S6 kinase alpha-3 (RPS6KA3, Homo sapiens, UniProt P51812): 2.47%
Tyrosine-protein kinase receptor TYRO3 (TYRO3, Homo sapiens, UniProt Q06418): 97.2%
Tyrosine-protein kinase Fes/Fps (FES, Homo sapiens, UniProt P07332): 90.9%
Tyrosine-protein kinase JAK2 (JAK2, Homo sapiens, UniProt O60674): 93.9%

Series 3
Host: human
Medium: microsomes or S9
Tested at: 2 µM
Time: 0.5 h
Endpoint: remaining compound
Cc1c(C(=O)Nc2cc(Cl)ccc2OCC2CCCO2)oc2c1C(=O)CC(C)(C)C2 (centres unmarked): 96.5%
COc1ccc2c(c1)C(=O)CC(c1ccccc1)O2 (centres unmarked): 86.3%
CCc1ccc(C2c3cccn3-c3sc4c(c3CN2C(=O)Nc2ccc(OC)c(OC)c2)CCCC4)cc1 (centres unmarked): 15.4%

Series 4
Target: UBE2H UBC core domain (UniProt P62256)
Chain of UniProt P62256 (whole entry, looked up): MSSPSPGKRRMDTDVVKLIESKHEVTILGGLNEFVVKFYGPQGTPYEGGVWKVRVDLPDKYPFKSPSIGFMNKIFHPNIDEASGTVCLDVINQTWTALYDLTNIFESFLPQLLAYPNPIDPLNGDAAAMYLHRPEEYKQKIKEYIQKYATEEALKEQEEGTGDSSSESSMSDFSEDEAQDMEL
Technique: yeast two-hybrid
Medium: yeast
Notes: mostly zero background
Baseline: not given
Reading: higher = stronger interaction
Endpoint: lacZ reporter activity
B1: RNF7 RING domain (UniProt Q9UBF6); chain AICRVQVMDACLRCQAENKQEDCVVVWGECNHSFHNCCMSLWVKQNNRCPLCQQDWVVQRIGK
B2: TRIM68 RING domain (UniProt Q6AZZ1); chain LVEAIVEEVACPICMTFLREPMSIDCGHSFCHSCLSGLWEIPGESQNWGYTCPLCRAPVQPRNLRP
B3: RNF10 RING domain (UniProt Q8N5U6); chain VRICSHEVPSCPICLYPPTAAKITRCGHIFCWACILHYLSLSEKTWSKCPICYSSVHKKDLKS
B4: NHLRC1 RING domain (UniProt Q6VVB1); chain MREAEISLLECKVCFEKFGHRQQRRPRNLSCGHVVCLACVAALAHPRTLALECPFCRRACRGCDTSD
B5: RFPL3 RING domain (UniProt O75679); chain MAALFQEASSCPVCSDYLEKPMSLECGCTVCLKCINSLQKEPHGEDLLCCCCSMVSQRNKIRP
B6: RNF11 RING domain (UniProt Q9Y3C5); chain RDGSEKKIRECVICMMDFVYGDPIRFLPCMHIYHLDCIDDWLMRSFTCPSCMEPVDAALLSS
B7: TRIM2 RING domain (UniProt Q9C040); chain VRQIDKQFLICSICLERYKNPKVLPCLHTFCERCLQNYIPAHSLTLSCPVCRQTSILPEKGV
B8: MARCHF2 RING domain (UniProt Q9P0N8); chain RLLSTVIRALDTPSDGPFCRICHEGANGECLLSPCGCTGTLGAVHKSCLEKWLSSSNTSYCELCHTEFAVEKRPRPLTEWL
B1 (RNF7 RING domain): 0
B2 (TRIM68 RING domain): 0
B3 (RNF10 RING domain): 0
B4 (NHLRC1 RING domain): 0
B5 (RFPL3 RING domain): 0
B6 (RNF11 RING domain): 0
B7 (TRIM2 RING domain): 0
B8 (MARCHF2 RING domain): 0

Mixed results
O=C(NS(=O)(=O)c1ccc(NCC2CCOCC2)c([N+](=O)[O-])c1)c1ccc(N2CCN(Cc3ccc(C(F)(F)F)cc3-c3ccc(Cl)cc3)CC2)cc1Oc1cnc2[nH]ccc2c1  inhibition (5-hydroxytryptamine receptor 5A (HTR5A, Homo sapiens, UniProt P47898); ligand displacement; 10 µM): -12.5%
CCOC(=O)[C@@H]1CSCC(=O)N[C@H](CC)C(=O)N(C)[C@@H](C)C(=O)N[C@H](CC(C)C)C(=O)N2CCC[C@H]2C(=O)N(CC(C)C)CC(=O)N[C@@H](CC(C)C)C(=O)N(C)[C@H](C)C(=O)N[C@@H](CC(C)C)C(=O)N1C  logD (hydrocarbon/water): 0.815
CNC(=O)c1ccc(Nc2ncc(C(F)(F)F)c(NCc3nccnc3N(C)S(C)(=O)=O)n2)cc1  EC50 (Protein-tyrosine kinase 2-beta (PTK2B, Homo sapiens, UniProt Q14289); target engagement, NanoBRET; live cells): 703 nM and 509 nM and 347 nM
CN(C)C(=O)/C(C#N)=C/c1ccc(-c2nc3cnc4[nH]ccc4c3n2C2CCCCC2)o1  viability (normal-adjacent epithelium patient-derived organoids sample G; CellTiter-Glo; 0.1 µM; baseline: DMSO): 117% and 135%

Repeated from above (series 1):
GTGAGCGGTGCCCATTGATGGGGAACGCACCACTCAGCCCCTCCTAGTCCGCTGGAGAAAGTGGCTGAGGGGGTGGTGGGGGATAATTGCATTTCCAAAGTCCGGGCAATCAGCCAATGTAAACAGGCACCTGCATCACTGTGTGGGCTCTCTAGGCAACAGGTAAAATACATCAAATACACACAATTTCCTGACATTCCAATGCATTTCTGCGTGAGCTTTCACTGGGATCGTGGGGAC: 0.249 ratio
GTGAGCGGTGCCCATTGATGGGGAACCAGCTTGGGGCAGACAGTTGTTAGGAGATAAAACTCTTAGCTGCTGGAGTTCTGGGCTTTATTTCTTCTTCAACAAAGCTCTGACTCAGTTAGGTAAACACAGGCACTAGCAAGCCTGATCATTTCCAGAGAGTTCCCCAGGGACAGACACAAAGGAATACAGAAGATAATAGATTAATTAAACATGCTGCCCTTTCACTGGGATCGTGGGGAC: 0.336 ratio
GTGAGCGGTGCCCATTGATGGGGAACATCTTCCCCCTCTTCCTTGCCCCACCAGCTCACCTACGGGGGTTATTTGCACAAAGGAAAATAAATAAAGCCGGCATTCGTTAACCCTCTTCTGGCGCAAACTGCTGTTTGCTCTGCATGAATCATGGTCCTTACGCGAGGCGTGGCTCCGGGAGAGCAAAGCACCGTGTCAGGCGCATGATCCGGGGTGGCCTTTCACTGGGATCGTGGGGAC: 0.387 ratio
